Experimental data from different studies.
Numbered parts are unrelated; each lists some results of a single study.

Series 1
Target: Centromere-binding protein 1, full length, His-tagged (CBF1, Saccharomyces cerevisiae, UniProt P17106, residues 1-351)
Sequence of UniProt P17106 (whole entry, looked up): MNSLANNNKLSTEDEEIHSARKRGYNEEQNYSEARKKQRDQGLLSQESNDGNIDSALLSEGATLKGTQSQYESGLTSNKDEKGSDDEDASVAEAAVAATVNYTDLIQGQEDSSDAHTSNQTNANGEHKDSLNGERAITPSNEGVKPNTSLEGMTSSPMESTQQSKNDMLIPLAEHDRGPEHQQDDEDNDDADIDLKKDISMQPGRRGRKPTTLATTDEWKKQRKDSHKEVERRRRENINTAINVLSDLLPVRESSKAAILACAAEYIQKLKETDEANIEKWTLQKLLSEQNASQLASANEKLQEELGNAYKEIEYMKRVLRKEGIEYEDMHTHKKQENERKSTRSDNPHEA
Technique: competition protein-binding microarray
Form: double-stranded DNA, one strand shown
Medium: in vitro
Tested at: 2 µM
Notes: whole 60-bp probe, lowest competitor level
With: Pho4 competitor, 0.05 µM
Direction: higher = stronger binding
Sequence	fluorescence intensity
AACCAGCATTATTTGCACGCAAGGCCCATTGAAAAGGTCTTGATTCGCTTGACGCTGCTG	79.6 a.u.
ATAAGCTTTTAGAAACACGTGATGGAAGAACCAGAGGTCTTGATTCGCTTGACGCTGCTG	4790 a.u.
CGTCCTAGTGATTTTCACGTGGAGTCCATGAGGAAGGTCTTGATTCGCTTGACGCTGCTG	472 a.u.
CCAGTTTTGGACTGTCACACTGCTCCCATTGCTTGTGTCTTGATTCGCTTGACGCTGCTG	88.7 a.u.
ACGGGAATATGGTCTTCTGCGATAGCTAGTAGAGAAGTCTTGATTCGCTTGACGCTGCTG	64.2 a.u.

Series 2
Target: Histone acetyltransferase KAT6A, both winged helices, GST fusion (KAT6A, Homo sapiens, UniProt Q92794, residues 1-181)
Technique: protein binding microarray
Form: double-stranded DNA, one strand shown
Medium: in vitro
Tested at: not given
Notes: 8-mer, flanks averaged, mean of 2 arrays, mostly near background
Reference: not given
Direction: higher = stronger binding
Target sequence (chain): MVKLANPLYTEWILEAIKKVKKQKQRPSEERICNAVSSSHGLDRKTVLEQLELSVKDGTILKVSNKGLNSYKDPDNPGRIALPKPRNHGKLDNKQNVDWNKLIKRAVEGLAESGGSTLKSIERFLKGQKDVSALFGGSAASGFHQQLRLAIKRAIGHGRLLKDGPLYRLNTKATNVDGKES
Sequence	E-score
ACCACGAA	-0.125
ACCACTTG	-0.174
ACCAAGAC	-0.028
ATCTGACC	0.0112
CTAGTTGC	-0.113
CCATACGG	0.232
CTCATGCC	-0.0624

Series 3
Target: RNA binding protein fox-1 homolog 2, RRM domain, GST-SBP tag (RBFOX2, Homo sapiens, UniProt O43251-10, residues 100-194)
Technique: RNA Bind-n-Seq
Form: RNA
Medium: in vitro
Tested at: 365 nM
Notes: natural RNA segment, single round, ends assumed
Reference: no-protein control
Direction: higher = stronger binding
Residues (chain): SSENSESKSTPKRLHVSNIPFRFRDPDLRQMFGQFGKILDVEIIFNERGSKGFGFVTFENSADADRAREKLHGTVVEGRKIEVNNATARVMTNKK
Sequence	RBNS enrichment (R)
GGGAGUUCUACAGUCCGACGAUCUCCCCAUCCUGAUGCUUUCAUGUUGGUUCCUGACACAUGGUCUGGCUUUGGGUUUGAAGGGCAAGGGUGGCUGUGAACCACCCCCACCCAGCCGUCAGGCCCGCUUCGUCUGGAAUUCUCGGGUGCCAA	0.298
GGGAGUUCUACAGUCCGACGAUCAAGGAAACCCUGUAUAUACCUACAUUGACCCAAGAAAUAUUUACGCAAUCCCUAGCAGAACAUUGUUUCUGAGGAGGCAUAUGUGAGAUUGAUUUGUUGGUUCAUGCCAAUGGAAUUCUCGGGUGCCAA	0.302
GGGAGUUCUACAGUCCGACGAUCGUACCCAAAUUAAAAUCCUGAUGUUCAGGUUAAUCCAAGCAACACGCAUUGGGUUUAAAACCAGCACCGAGGCCCAGUGGGGGAAUCACAGACAUCACCAAGUCUCGUCUUGGAAUUCUCGGGUGCCAA	0.288
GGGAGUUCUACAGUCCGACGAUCCACUCACCACACACACUUCCUUCAAAAGACCAAAAGUGACUGGUGUCUCGUGUGACAGAUUGCUUCAUUUAUGUUUCUACAUAGUAAGGUGACUGCCAAAUAAUAUUUGAUGGAAUUCUCGGGUGCCAA	0.327
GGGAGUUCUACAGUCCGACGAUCAGGUAUUUAAAUUGUUCAUCUUAGUUGACUUUCCCAAGCCAUACUUCUAAAACAAAACACCAGCCCCAUAGACCACUGAGCACCUAGGGAGGUUUCUCUGCCUAGCCAUAUGGAAUUCUCGGGUGCCAA	0.33
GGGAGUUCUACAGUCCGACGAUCCUUGCAGUAGCAGGCUGACAGGAGCAAUGGCCACCAGCAGGUGAAGGGCAUCGCUGCCCCAGGCCUCAAGCCGGGCACCCAACCCUGGAUGCCACCCCCCAGCGGGUACCUGGAAUUCUCGGGUGCCAA	0.184
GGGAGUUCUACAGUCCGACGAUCGCUGUUUUCGAGUUCAGGUGAAUUAGCCUCAAUCCCCCGUGUUCACUUGGCUCCCAUAGCCCUCUUGAUGGAUCACGUAAAACUGAAAGGCAGCGGGGAGCAGACAAAGAUGGAAUUCUCGGGUGCCAA	0.406
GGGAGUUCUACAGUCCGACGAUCGAAUGGUUUAAAAAGAUUGCAUUGUUACAAAGCUAGAAAAAAUUUAUGUAUGAAAAAUGAUCCUAGCCUUACACUGAGUACAAUAAUACUUAUAAGCAUGUGAAGAUGUGUGGAAUUCUCGGGUGCCAA	16.7

Further values, each from its own experiment
Molecule	target	assay	test system	conditions	scale	quantity	value
PhoQ, residues 284 288 289 292 302 303 AGGLSV	PhoP, residues 12 14 15 18 19 LWHVM (Escherichia coli, UniProt P23836)	Sort-seq, item: YFP reporter	E. coli	PhoQ-PhoP variant library, with: 10 µM Mg2+	reference: high Mg2+ state, higher = stronger signaling	fold induction	1.23

Some of these lines once more (series 1):
Sequence	fluorescence intensity
AACCAGCATTATTTGCACGCAAGGCCCATTGAAAAGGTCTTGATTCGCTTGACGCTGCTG	79.6 a.u.
ATAAGCTTTTAGAAACACGTGATGGAAGAACCAGAGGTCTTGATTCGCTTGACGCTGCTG	4790 a.u.
CCAGTTTTGGACTGTCACACTGCTCCCATTGCTTGTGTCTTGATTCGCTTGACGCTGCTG	88.7 a.u.
